Measurements collected from several papers.
Parts stem from different laboratories: compare values within a part only.

Series 1
Target: Histone acetyltransferase KAT6A, both winged helices, GST fusion (KAT6A, Homo sapiens, UniProt Q92794, residues 1-181)
Method: protein binding microarray
Form: double-stranded DNA, one strand shown
Sample: in vitro
Tested at: not given
Notes: 8-mer, flanks averaged, mean of 2 arrays, mostly near background
Relative to: not given
Reading: higher = stronger binding
Construct (chain): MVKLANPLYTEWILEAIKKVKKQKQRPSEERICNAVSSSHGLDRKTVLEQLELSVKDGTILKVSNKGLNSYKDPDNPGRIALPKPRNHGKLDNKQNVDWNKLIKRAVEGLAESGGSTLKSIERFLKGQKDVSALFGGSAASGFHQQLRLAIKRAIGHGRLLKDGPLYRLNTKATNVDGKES
Sequence	E-score
CTAAACTA	-0.172
GTAGGACA	-0.0932
AACAGAAT	0.00443
ATAGTTCG	-0.0995

Series 2
Target: Interferon regulatory factor 7, full length, phosphomimetic (IRF7, Homo sapiens, UniProt Q92985, residues 1-503, S101K/S471D/S472D/S475D/S476D/S477D/S483D/S484D/S487D)
UniProt Q92985, sequence (whole entry, unmodified, looked up): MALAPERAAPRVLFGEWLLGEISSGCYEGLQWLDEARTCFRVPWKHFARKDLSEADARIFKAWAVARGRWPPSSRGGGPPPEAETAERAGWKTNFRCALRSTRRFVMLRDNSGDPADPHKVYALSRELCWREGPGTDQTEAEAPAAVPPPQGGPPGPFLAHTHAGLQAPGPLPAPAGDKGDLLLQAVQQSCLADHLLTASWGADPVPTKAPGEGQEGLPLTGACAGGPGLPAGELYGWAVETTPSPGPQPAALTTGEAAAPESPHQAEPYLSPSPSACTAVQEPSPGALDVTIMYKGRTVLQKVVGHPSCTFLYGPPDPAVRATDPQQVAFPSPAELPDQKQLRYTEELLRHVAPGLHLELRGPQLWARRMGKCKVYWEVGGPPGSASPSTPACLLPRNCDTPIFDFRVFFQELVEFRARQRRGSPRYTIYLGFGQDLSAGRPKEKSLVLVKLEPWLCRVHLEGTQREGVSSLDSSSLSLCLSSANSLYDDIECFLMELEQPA
Method: protein-binding microarray
Form: double-stranded DNA, one strand shown
Sample: in vitro
Tested at: 250 nM
Notes: 60-bp whole probe
Added: salmon DNA 0.4 mg/ml
Relative to: random background probes
Reading: higher = stronger binding
Constant ends, left off below: GCCTAGCAC … GTCTTGATTCGCTTGACGCTGCTG
Sequence	log fluorescence
CCTCCTCTCTCTTTCCACTTGTGCTAG	0.637 z-score
TTAGGTATCGGGTATCTGTTAGTGCTA	0.79 z-score
TTATGACTGGGTATCGGTTAGTGCTAG	0.478 z-score
TCAATTTTGTGTCTGGGACTGTGCTAG	0.154 z-score
GACGGACTGGACTTTCGGGCCGTGCTA	-0.828 z-score
ACAGCCTTTCTAACTTGAAAGTGCTAG	-0.137 z-score
AACGGACTGCTACTGCTGACGTGCTAG	-0.689 z-score

Series 3
Target: RING finger protein unkempt homolog, zinc fingers 1-6, GST-SBP tag (UNK, Homo sapiens, UniProt Q9C0B0, residues 30-357)
Method: RNA Bind-n-Seq
Form: RNA
Sample: in vitro
Tested at: not given
Notes: RNA with constant flanks, human-mouse chimeric sites, ends assumed
Relative to: input RNA pool
Reading: higher = stronger binding
Residues (chain): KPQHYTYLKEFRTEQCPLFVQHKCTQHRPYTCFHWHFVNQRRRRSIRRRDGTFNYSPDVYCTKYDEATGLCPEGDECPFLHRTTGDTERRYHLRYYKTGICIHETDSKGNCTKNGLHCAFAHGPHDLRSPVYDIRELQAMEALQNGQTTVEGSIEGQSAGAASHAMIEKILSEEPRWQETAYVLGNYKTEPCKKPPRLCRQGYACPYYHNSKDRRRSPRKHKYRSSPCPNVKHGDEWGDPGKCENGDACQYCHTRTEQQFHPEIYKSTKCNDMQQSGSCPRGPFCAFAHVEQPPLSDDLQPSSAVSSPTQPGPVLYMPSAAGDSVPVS
Sequence	bound/input enrichment [ratio]
GGGAGUUCUACAGUCCGACGAUCAAAGAACUUGCUGAUGAUGAAGAUGAGGAAGACAAUGAUGAUGUUGAACCCAUUUCUGAAUUUCGAUUUGUGCCCAGUGAUAAAUCAGCAUUGGAGGCGAUGUUCACAGCAAUGUGUGAGCAACAGAGGAUUGAGCAUCA	0.304
GGGAGUUCUACAGUCCGACGAUCUUCAAAGAAAAGGGCAGCUGUGUCAUUUCAUAAGUAAAACUGCAUCCGGGAAAUUCUGUUCUUUUGUUUAAUUUUCCCCCAAAUGAAACCAACAUGCGUGUUGAAGAACUGAGAAAAAAUCAACAGAGGAUUGAGCAUCA	0.179
GGGAGUUCUACAGUCCGACGAUCACACAAUAUGAGACCAACAGCAUGGACUUCAAAGUUGGGGCAGAUGGGACAGUCUUCGCCACUAGGGAGCUGCAGGUCCCCUCCGAGCAGGUGGCGUUCACGGUGACUGCAUGGGACAGCCAACAGAGGAUUGAGCAUCA	0.214
GGGAGUUCUACAGUCCGACGAUCGUGCCCUUCUCGCUGCUGCGGAGCCCGCCCAGCUGGGCAUUCCGGGACUGGUACCCUGCACACAGCCGCCUCUUCGAUCAAGCUUUCGGGGUGCCCCGGCUGCCGGAUGAGUGGUCGCAGCAACAGAGGAUUGAGCAUCA	0.0593

Other studies, line by line
Substance	target	assay	test system	setting	how to read	quantity	value
PhoQ, residues 284 288 289 292 302 303 NLALSC	PhoP, residues 12 14 15 18 19 IFFTR (Escherichia coli, UniProt P23836)	Sort-seq, measured: YFP reporter	E. coli	PhoQ-PhoP variant library, added: 10 µM Mg2+	relative to: high Mg2+ state, higher = stronger signaling	fold induction	2.24

Excerpt of the above (other studies, line by line):
Substance	target	assay	test system	setting	how to read	quantity	value
PhoQ, residues 284 288 289 292 302 303 NLALSC	PhoP, residues 12 14 15 18 19 IFFTR (Escherichia coli, UniProt P23836)	Sort-seq, measured: YFP reporter	E. coli	PhoQ-PhoP variant library, added: 10 µM Mg2+	relative to: high Mg2+ state, higher = stronger signaling	fold induction	2.24
